Assay results of several laboratories.
Each numbered part is a random draw from the data of one study; scales do not carry over between parts. Changes are numbered by the printed parent chain.

Study 1
Target: CCNA2, cyclin fold, Cln2 fusion (human)
Technique: yeast growth competition, sequencing
Medium: yeast
Notes: strong parent motif
Reference: not given
Direction: higher = stronger binding
Starting sequence: PKMYT1 docking peptide (human); SFEPRNLLSLFED; partner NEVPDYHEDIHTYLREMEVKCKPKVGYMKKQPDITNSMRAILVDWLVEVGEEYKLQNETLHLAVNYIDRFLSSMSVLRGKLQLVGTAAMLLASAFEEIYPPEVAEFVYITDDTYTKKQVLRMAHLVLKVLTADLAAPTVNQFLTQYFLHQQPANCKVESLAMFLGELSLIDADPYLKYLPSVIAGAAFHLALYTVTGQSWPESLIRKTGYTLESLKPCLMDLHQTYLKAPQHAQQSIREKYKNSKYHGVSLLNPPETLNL
Change | normalised enrichment score
SFEPRNLLSHFED [L10H] | 1.47
SFEGRNLLSLFED [P4G] | 0.167
SFEPRILLSLFED [N6I] | 0.336
SFEPRNLLSLFCD [E12C] | 2.23
SFKPRNLLSLFED [E3K] | 4.78
SFEPRNLLSGFED [L10G] | 0.121
TFEPRNLLSLFED [S1T] | 2.16
SFEPRYLLSLFED [N6Y] | -0.485
SFHPRNLLSLFED [E3H] | 3.73
SFEPRNILSLFED [L7I] | 0.236
SFEPRNLLSCFED [L10C] | 1.68
SEEPRNLLSLFED [F2E] | -1.05
SFEPRNLLSLFEA [D13A] | 2.98
SFEPANALSLFED [R5A L7A] | -0.88
SFEPENLLSLFED [R5E] | -0.113
SFEPRNLLSLFKD [E12K] | 2.32
DFEPRNLLSLFED [S1D] | 2.52
SFEPRNLLSLQED [F11Q] | -0.437
SFEPRVLLSLFED [N6V] | 0.0681
SFEPRNLLSLDED [F11D] | -1.41
SFEPANLLSLFED [R5A] | 0.316
SFEPRNLLSLFES [D13S] | 3.04
SFERRNLLSLFED [P4R] | 0.834
SFEPRNLLSLFMD [E12M] | 1.47
SFEPQNLLSLFED [R5Q] | 0.227

Study 2
Target: Interferon regulatory factor 7, full length, phosphomimetic (IRF7, Homo sapiens, UniProt Q92985, residues 1-503, S101K/S471D/S472D/S475D/S476D/S477D/S483D/S484D/S487D)
Technique: protein-binding microarray
Molecule type: double-stranded DNA, one strand shown
Medium: in vitro
Concentration: 250 nM
Notes: 60-bp whole probe
With: salmon DNA 0.4 mg/ml
Reference: random background probes
Direction: higher = stronger binding
All sequences stand within: GCCTAGCAC … GTCTTGATTCGCTTGACGCTGCTG
Target sequence (chain): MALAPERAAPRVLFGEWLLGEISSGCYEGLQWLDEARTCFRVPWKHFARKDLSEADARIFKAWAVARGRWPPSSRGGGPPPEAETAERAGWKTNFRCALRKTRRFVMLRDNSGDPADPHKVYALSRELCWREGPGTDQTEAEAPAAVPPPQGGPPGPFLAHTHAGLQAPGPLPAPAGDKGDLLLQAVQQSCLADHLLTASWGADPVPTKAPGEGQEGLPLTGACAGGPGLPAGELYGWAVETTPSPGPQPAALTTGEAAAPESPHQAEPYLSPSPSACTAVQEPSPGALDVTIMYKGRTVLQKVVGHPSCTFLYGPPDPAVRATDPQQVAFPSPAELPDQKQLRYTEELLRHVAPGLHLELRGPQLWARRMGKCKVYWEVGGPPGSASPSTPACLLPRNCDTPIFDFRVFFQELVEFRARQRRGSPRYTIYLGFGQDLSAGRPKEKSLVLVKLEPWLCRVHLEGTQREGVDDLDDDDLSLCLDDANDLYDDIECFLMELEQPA
Oligonucleotide | log fluorescence
GGAAGTCCCATGTTGCAGACTGTGCTA | 0.546 z-score
TTAGGTATCGGACTGGGTCAGTGCTAG | 0.0615 z-score
TCATCTACAGGGTTTCACACTGTGCTA | 0.0167 z-score
TCAATTTTTTTTTTCTAACTGTGCTAG | 0.52 z-score
TGAAGACTCTCTTGTCTGGATGTGCTA | -0.529 z-score
GACGGATTGCTTTTCCTGACGTGCTAG | -0.00666 z-score
TTAGAATTCAGTATCGATTAGTGCTAG | 0.947 z-score
TTAGAACTGGGGTTTCGATCAGTGCTA | 1.64 z-score
CTCTGTCTAAAATTGTTAAAGTGCTAG | -0.039 z-score
TACGGACTGGACTATCGGGACGTGCTA | -0.549 z-score
CACGAACTGGGGTATCGAGACGTGCTA | -0.613 z-score
GACGATTTCAGTCCCGAGACGTGCTAG | 0.122 z-score
GACGGTCTCCTTCTTCTGACGTGCTAG | 0.163 z-score
GACGGTTCCGGGTTTCGGGACGTGCTA | 4.45 z-score
GAAGACTTTGGTTTGTACACGTGCTAG | -0.231 z-score
ATCGATTTCTTCCCTGTGAAAGTGCTA | 1.31 z-score
TTAGGACTGGGTATCGGTGAGTGCTAG | -0.179 z-score
TTAGGTATCCGTTTCCTTTAGTGCTAG | 2.55 z-score
TTAGGACTGAGGTTTCGGTTAGTGCTA | 6.62 z-score
TTAGGTTTCCTAGTGCTTTAGTGCTAG | 1.41 z-score
TCATCACTTTCTTTAACACTGTGCTAG | 0.675 z-score
TTAGGTTTCCTTTCCCTTTTGTGCTAG | 5.04 z-score

Study 3
Target: ABI1, truncated, D143A, DHFR fusion (Arabidopsis thaliana, UniProt P49597)
Technique: DHFR PCA, dose-response
Medium: yeast
Notes: Hill fit, mean, not affinity
With: (+)-ABA, dose series
Direction: lower = more sensitive
Starting sequence: PYL1, truncated, DHFR fusion (Arabidopsis thaliana, UniProt Q8VZS8); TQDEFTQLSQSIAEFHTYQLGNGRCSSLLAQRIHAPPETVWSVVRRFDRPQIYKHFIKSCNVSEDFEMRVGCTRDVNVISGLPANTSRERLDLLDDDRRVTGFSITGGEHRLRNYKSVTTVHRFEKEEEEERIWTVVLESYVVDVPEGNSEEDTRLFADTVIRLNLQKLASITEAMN
Change | ABA EC50 [µM]
V142T | 1.54
G21I | 2.8
S42M | 7.53
R49L | 8.85
K116L | 421
G21Q | 2.04
E67Y | 5.01
R45Q | 227
D144L | 94.2
R98F | 59.3
V70W | 194
Q2R | 1.59
M176V | 3.68
L156E | 9.83
Q19E | 1.9
F124S | 6.7
F47Y | 77
L138M | 11.4
V121C | 18.7

Study 4
Target: RNA binding protein fox-1 homolog 2, RRM domain, GST-SBP tag (RBFOX2, Homo sapiens, UniProt O43251-10, residues 100-194)
Technique: RNA Bind-n-Seq
Molecule type: RNA
Medium: in vitro
Concentration: 365 nM
Notes: natural RNA segment, single round, ends assumed
Reference: no-protein control
Direction: higher = stronger binding
Construct (chain): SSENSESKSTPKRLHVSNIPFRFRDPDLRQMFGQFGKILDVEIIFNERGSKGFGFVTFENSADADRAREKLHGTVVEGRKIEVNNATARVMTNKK
Oligonucleotide | RBNS enrichment (R)
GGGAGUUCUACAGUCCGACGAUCACUAGAGGUGGGUGACCUAUGGUUAUGUGGCACGGCAAAGCAAGUACCUCUUAAGGGACUCUAAUAUAUGCUAACGCUGGUCCUCUUAGCUCUGUGCUCUCACCAGACAAUGGAAUUCUCGGGUGCCAA | 0.305
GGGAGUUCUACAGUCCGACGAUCCUGGAUCAUGGUUUUCUUCCUUACUUACAGGUUGCUUCACACUGAGUGAUAAUUUAAAAUUGUUUCUAUGUAGAAUCAUUGUCUCUACUGUUGCCCUCUCUGUGUCUGCAUGGAAUUCUCGGGUGCCAA | 1.23
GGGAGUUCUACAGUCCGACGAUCCCAAGUGCCUGAUACUCCCUUACACUGAAUCAUGUUAUGAUUUAUAGAAAUACCUUUCCUGUAGCUUUUAUAGUCAUUGUUUUUCAAAGACGAUAUACCAGCCCUCACCCUGGAAUUCUCGGGUGCCAA | 0.604
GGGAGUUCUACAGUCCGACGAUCGGACUCCGUAUGCAUUACAAGUACUUUGAAACGGAUGACCCAGAAUUCUAUAAGUCCAAGGUGUGCUUUAUCCUCAACAAUGACAUGAGUGAGAUGGAGCUGGUCUUUGCUGGAAUUCUCGGGUGCCAA | 2.66
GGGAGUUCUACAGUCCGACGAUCGGUGAACUUUUGGGGUCAUUAUAUCAAUUUUUUCUUUGGAUUCAAAUUGUAAUGUCCCCUGCAUUUCCUUAAUAGGGAAUGUGAAACCUUUAUAAAACUCUAAAAGUAUUUGGAAUUCUCGGGUGCCAA | 0.358
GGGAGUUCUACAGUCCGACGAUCCUGUAGUGGGGUUCUAGGCAUCUCUGUACUUUGCUUGCUCAUAUGCAUGUAGUCACUUUAUAAGUCAUUGUAUGUUAUUAUAUUCCGUAGGUAGAUGUGUAACCUCUUCAUGGAAUUCUCGGGUGCCAA | 2.47
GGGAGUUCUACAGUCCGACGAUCUUCCCACCACAAAUUAUCAACUGGUUGAUGUGUACACUAAUUACAUUUCAGGAGGACUUAAUGCUAUUUAUGUUGUGCCUCUGCAGGCAAAGCCCUUAAUAAAUAUUUUAUGGAAUUCUCGGGUGCCAA | 0.78
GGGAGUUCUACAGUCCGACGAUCGCCCAUCUGUAUGCUGGUAGCUAGUGAUUUACACAGGUUUAGUUGACUAAUGAGGCAUUACAAAUAAUAUUACUCUAUGAUGAUUGCUUCCACCCACACGACUGCAACAUUGGAAUUCUCGGGUGCCAA | 0.861
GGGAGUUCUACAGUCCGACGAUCUUGAGAUCAGAUCAUAACUCACUUGCCCAGAGGCAGCAGAAAUCUGAUCCUACUACUGGAGCUUAAAAAUAACAAUUAAUGAAAAGUGUUAGAAACAAGGCUACAGUUUUUGGAAUUCUCGGGUGCCAA | 0.36
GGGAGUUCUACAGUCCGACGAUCUUUAAAACUGGGUAGAAAUGUAAUAUACAUUGGACCACUUUUUUAAGCCUUAAUGAACAGUGUAUAUACAUCUGUGUAUGCACACUCCACCCCAGAGUGUUUUCAGUGUGUGGAAUUCUCGGGUGCCAA | 0.39
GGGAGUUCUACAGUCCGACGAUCACAGCCCCUGCCCUGCCUCUGAGGGCCCACCAGCCUGUGCUGCAUACCCACCGCCCAGCUUCUCCCUGAGGGCCCACCAGCCUGUGCUGCAUACCCACCGCCCAGCUUCUUGGAAUUCUCGGGUGCCAA | 0.973
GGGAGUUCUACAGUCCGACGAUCUUCAUGUGGCAGGAAACUGGAAUAUCGCUUUUAAUAAAAUGGAAAAAUAUGCUUCUACAUAUUUACCACCAUAGGCGUUUUGUUCAUAUGAGCCUGGUUUGUGCAAAAUUUGGAAUUCUCGGGUGCCAA | 0.581

Other studies, line by line
Substance | target | assay | system | conditions | scale | measurement | value
PhoQ, residues 284 288 289 292 302 303 ASASEQ | PhoP, residues 12 14 15 18 19 QYFSL (Escherichia coli, UniProt P23836) | Sort-seq, measured: YFP reporter | E. coli | PhoQ-PhoP variant library, with: 10 µM Mg2+ | reference: high Mg2+ state, higher = stronger signaling | fold induction | 13

Repeated from above (study 2):
Oligonucleotide | log fluorescence
TTAGGACTGGGTATCGGTGAGTGCTAG | -0.179 z-score
TTAGGTATCCGTTTCCTTTAGTGCTAG | 2.55 z-score
CTCTGTCTAAAATTGTTAAAGTGCTAG | -0.039 z-score
TACGGACTGGACTATCGGGACGTGCTA | -0.549 z-score
GAAGACTTTGGTTTGTACACGTGCTAG | -0.231 z-score
GACGGTCTCCTTCTTCTGACGTGCTAG | 0.163 z-score
TTAGGTATCGGACTGGGTCAGTGCTAG | 0.0615 z-score
TCATCACTTTCTTTAACACTGTGCTAG | 0.675 z-score
TTAGGTTTCCTAGTGCTTTAGTGCTAG | 1.41 z-score
GACGGTTCCGGGTTTCGGGACGTGCTA | 4.45 z-score
GGAAGTCCCATGTTGCAGACTGTGCTA | 0.546 z-score
